Measured values collected from several papers.
Lines come from different studies, so protocols differ. Numbers after ± are the reported error.
Lanosterol 14-alpha-demethylase: Lanosterol 14-alpha-demethylase (Trypanosoma brucei brucei, UniProt Q385E8)
SCN10A: Sodium channel protein type 10 subunit alpha (SCN10A, Homo sapiens, UniProt Q9Y5Y9)
UniProt Q9Y5Y9, sequence (whole entry, looked up): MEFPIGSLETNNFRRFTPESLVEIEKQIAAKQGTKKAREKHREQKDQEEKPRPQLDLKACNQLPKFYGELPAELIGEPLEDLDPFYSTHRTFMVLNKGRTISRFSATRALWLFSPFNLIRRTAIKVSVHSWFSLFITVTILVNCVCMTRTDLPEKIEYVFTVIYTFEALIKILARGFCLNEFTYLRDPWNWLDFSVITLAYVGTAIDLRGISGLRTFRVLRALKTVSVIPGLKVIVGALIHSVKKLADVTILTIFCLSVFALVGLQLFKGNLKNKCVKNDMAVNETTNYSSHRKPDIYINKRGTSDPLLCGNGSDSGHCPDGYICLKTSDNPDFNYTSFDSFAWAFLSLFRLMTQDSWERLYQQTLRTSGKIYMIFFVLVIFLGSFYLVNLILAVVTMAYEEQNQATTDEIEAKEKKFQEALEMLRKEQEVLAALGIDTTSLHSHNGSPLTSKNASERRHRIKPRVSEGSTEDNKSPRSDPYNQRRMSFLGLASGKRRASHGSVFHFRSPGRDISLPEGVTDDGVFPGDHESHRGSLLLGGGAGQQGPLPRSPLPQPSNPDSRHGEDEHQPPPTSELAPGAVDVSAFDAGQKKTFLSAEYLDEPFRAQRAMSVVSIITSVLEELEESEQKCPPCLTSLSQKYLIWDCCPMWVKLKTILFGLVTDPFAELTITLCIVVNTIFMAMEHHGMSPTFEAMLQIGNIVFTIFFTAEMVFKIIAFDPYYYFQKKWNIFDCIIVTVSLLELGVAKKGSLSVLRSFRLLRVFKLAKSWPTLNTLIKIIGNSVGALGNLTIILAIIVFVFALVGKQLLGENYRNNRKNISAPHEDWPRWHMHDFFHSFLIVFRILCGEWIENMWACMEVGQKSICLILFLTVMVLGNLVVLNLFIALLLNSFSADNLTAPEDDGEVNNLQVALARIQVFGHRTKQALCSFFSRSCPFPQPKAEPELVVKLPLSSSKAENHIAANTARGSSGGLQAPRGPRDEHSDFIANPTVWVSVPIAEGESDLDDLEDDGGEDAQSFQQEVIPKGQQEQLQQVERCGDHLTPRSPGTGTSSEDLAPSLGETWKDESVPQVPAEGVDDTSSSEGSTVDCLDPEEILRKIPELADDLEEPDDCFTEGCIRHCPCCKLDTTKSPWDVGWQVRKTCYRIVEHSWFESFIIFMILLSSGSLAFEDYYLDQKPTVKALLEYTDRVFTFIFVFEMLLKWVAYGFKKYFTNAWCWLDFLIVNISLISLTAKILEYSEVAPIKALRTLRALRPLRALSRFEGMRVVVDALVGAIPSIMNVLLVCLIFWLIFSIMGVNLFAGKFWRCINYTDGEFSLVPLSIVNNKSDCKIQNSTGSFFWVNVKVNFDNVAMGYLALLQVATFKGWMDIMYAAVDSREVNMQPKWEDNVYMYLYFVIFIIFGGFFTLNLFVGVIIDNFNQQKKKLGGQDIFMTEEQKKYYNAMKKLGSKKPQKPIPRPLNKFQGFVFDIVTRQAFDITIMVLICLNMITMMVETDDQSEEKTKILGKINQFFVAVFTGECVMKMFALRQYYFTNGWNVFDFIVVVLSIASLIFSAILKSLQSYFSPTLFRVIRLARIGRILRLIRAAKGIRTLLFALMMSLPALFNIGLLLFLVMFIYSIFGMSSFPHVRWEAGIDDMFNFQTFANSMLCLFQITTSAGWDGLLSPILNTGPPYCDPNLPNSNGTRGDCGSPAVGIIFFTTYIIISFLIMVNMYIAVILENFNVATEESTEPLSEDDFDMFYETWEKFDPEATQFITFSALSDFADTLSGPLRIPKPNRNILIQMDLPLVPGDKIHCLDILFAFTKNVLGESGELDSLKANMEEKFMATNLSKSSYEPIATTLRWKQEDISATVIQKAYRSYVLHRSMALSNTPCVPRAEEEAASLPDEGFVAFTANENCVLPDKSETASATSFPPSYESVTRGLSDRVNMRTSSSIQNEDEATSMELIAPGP
PPO3: PPO3 (Agaricus bisporus, UniProt C7FF04)
UniProt C7FF04, sequence (whole entry, looked up): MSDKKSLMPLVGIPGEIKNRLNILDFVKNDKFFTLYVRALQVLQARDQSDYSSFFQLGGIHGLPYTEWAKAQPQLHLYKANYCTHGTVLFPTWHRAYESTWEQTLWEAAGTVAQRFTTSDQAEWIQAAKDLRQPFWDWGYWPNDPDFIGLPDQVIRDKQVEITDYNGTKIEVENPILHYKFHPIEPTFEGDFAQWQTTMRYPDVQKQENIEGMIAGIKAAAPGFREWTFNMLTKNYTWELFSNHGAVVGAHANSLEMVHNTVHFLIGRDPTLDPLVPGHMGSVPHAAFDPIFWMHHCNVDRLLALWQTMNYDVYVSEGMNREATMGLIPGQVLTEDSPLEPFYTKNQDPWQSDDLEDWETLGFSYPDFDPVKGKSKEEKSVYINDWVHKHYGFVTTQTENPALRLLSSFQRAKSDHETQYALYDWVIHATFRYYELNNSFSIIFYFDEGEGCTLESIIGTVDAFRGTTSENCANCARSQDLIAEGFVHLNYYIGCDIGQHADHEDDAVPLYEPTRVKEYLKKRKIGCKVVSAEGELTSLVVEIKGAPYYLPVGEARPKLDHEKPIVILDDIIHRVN
Aldo-keto reductase family 1 member B1: Aldo-keto reductase family 1 member B1 (Bos taurus, UniProt P16116)
gag-pol integrase: Gag-Pol polyprotein, integrase (gag-pol, Human immunodeficiency virus type 1 group M subtype B, UniProt P04585)
KDM1A with CoREST: Lysine-specific histone demethylase 1A, with CoREST (KDM1A, Homo sapiens, UniProt O60341)
IDO1: Indoleamine 2,3-dioxygenase 1 (IDO1, Homo sapiens, UniProt P14902)
UniProt P14902, sequence (whole entry, looked up): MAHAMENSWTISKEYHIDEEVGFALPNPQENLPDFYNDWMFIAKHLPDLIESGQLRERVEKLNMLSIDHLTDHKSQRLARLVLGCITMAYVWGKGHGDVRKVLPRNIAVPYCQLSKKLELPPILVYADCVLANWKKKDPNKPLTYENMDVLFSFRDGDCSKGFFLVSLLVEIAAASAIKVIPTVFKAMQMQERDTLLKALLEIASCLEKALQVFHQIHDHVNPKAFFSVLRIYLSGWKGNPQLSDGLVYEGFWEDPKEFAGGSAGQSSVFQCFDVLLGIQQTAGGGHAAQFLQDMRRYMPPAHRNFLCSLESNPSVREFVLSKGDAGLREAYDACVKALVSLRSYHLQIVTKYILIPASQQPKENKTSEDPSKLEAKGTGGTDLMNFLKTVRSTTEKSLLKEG
Genome polyprotein NS2B-NS3 protease: Genome polyprotein, NS2B-NS3 protease (Dengue virus type 2, UniProt P14340)
UniProt Q8WTS6, sequence (whole entry, looked up): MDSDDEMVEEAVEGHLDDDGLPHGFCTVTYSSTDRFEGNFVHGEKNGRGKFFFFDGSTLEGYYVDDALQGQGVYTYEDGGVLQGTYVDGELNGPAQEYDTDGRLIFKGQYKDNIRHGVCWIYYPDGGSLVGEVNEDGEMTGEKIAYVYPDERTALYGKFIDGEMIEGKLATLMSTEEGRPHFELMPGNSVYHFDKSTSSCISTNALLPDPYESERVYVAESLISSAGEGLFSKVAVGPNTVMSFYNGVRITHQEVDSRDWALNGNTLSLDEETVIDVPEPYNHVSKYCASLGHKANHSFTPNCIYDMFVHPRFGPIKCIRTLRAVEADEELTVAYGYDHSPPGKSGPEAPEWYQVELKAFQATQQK
UniProt P34969, sequence (whole entry, looked up): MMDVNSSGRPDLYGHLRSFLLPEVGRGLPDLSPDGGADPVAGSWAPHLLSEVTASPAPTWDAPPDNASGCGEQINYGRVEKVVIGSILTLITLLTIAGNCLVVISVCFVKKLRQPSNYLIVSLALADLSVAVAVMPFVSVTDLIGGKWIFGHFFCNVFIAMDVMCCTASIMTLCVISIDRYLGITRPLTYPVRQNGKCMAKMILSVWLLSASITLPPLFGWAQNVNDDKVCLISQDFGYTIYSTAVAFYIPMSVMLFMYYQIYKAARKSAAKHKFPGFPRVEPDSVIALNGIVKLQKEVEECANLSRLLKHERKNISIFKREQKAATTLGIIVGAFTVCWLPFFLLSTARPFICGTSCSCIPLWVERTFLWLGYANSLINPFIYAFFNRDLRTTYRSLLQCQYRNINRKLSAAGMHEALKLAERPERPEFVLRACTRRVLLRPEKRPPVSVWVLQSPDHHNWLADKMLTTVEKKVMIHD
UniProt P03952, sequence (whole entry, looked up): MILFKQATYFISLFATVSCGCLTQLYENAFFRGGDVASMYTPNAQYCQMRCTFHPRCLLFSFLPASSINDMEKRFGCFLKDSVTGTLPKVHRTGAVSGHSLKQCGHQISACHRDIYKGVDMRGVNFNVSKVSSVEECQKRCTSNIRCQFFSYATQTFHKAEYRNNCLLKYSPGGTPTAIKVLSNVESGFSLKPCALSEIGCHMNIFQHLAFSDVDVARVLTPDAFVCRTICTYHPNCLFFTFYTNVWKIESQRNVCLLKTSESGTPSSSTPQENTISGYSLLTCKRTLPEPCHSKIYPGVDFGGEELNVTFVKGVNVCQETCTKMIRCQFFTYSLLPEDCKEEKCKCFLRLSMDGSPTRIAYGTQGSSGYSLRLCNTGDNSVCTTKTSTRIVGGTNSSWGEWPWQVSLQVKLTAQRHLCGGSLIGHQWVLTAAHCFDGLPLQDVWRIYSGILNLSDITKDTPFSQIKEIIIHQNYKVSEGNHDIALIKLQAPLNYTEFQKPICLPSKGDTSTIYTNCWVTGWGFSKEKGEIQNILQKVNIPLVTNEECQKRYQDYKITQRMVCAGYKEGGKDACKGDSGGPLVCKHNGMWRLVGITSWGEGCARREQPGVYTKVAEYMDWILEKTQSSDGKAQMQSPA
UniProt P08033, sequence (whole entry, looked up): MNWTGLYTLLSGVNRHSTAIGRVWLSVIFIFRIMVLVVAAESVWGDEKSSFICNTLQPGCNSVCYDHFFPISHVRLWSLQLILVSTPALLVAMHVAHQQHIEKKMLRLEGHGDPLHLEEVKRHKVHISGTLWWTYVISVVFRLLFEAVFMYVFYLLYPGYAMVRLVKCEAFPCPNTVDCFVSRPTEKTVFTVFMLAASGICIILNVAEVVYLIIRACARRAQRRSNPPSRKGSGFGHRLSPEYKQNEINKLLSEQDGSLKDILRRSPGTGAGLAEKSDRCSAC
UniProt P04406, sequence (whole entry, looked up): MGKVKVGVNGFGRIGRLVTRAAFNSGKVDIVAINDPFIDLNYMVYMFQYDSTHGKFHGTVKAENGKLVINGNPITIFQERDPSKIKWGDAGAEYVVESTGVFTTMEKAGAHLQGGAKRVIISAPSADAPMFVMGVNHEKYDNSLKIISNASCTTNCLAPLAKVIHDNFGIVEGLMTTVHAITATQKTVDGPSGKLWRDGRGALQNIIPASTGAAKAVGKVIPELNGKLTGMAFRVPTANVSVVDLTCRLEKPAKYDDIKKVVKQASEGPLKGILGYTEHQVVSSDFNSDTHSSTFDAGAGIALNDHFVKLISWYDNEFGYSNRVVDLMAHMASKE

For `C=CCc1cccc(/C=N/C23CC4CC(CC(C4)C2)C3)c1O`, inhibition read “inactive” (alkaline phosphatase; enzyme activity; human serum; concentration not given, added: p-nitrophenyl phosphate).
Under inhibition, `O=C(N[C@@H](Cn1ccnc1)c1ccc(-c2ccc(F)cc2)cc1Cl)c1ccc(-c2nnc(-c3ccccc3)o2)cc1` is recorded as “inhibited” (Lanosterol 14-alpha-demethylase; enzyme activity, inhibitor; equimolar to enzyme, 1 h, Trypanosoma brucei CYP51, added: obtusifoliol 50 µM).
For `CCN(CC)Cc1cc(Nc2ccnc3cc(Cl)ccc23)ccc1O.Cl.Cl.O.O`, the inhibition was 89.6% (SCN10A; sodium influx, inhibitor, FLIPR; HEK293; 10 µM, added: deltamethrin 10 µM).
With `CC(C)(C)c1cc(/C=C2\OC(=S)N(c3ccccc3)C2=O)cc(C(C)(C)C)c1O` the inhibition was 8.53% (PPO3; enzyme activity, inhibitor; 25 µM).
`CCC(NC(C)C)C(O)c1ccc(O)c(O)c1.CS(=O)(=O)O` (centres unmarked) gave an inhibition of 98.5% (SCN10A; sodium influx, inhibitor, FLIPR; HEK293; 10 µM, added: deltamethrin 10 µM).
For `CC(C)(C)c1cnc(CSc2cnc(NC(=O)C3CCNCC3)s2)o1`, the inhibition was 31.6% (GSK3A (Homo sapiens, UniProt P49840); probe labeling, KiNativ live-cell profiling; MOLT-4; 0.25 µM).
`C/C(=N/N=c1/scc(-c2ccc([N+](=O)[O-])cc2)n1-c1ccccc1)c1ccc2c(c1)NC(=O)CO2` has an inhibition of 20.8% (Aldo-keto reductase family 1 member B1; enzyme activity, inhibitor, absorbance; 1 mM).
The inhibition of `COc1ccc(-c2cn(C)c3nc(Cl)ccc23)cc1` is reported as 56% (gag-pol integrase; strand transfer; wild type; 10 µM).
For `O=C1/C(=C/c2ccccc2O)OC(=S)N1c1ccccc1`, the inhibition was 71% (PPO3; enzyme activity, inhibitor; 25 µM, added: L-tyrosine).
The inhibition of `GRTMQTARKSTGG` is reported as roughly 31% (SETD7 (Homo sapiens, UniProt Q8WTS6); enzyme activity, inhibitor, MALDI-TOF MS; peptide; 50 µM, 10 min preincubation, 30 min, pH 8, 37 °C, enzyme 500 nM, added: H3 1-21 peptide, SAM 30 µM).
For `Cc1cccc(C)c1-n1c(-c2ccc(Cl)cc2)cs/c1=N/N=C\c1c[nH]c2ccccc12`, the inhibition was less than 50% (Aldo-keto reductase family 1 member B1; enzyme activity, inhibitor, absorbance; 1 mM).
The inhibition of `Cn1cc(-c2ccc3c(c2)OCO3)c2ccc(-c3ccncc3)nc21` is reported as 71.3% (gag-pol integrase; strand transfer; wild type; 10 µM).
With `O=[N+]([O-])c1ccc(-c2cs/c(=N/N=C\c3c[nH]c4ccccc34)n2-c2ccccc2)cc1` the inhibition was less than 50% (Aldo-keto reductase family 1 member B1; enzyme activity, inhibitor, absorbance; 1 mM).
The inhibition of `COc1cc(/C=C2\OC(=S)N(c3ccccc3)C2=O)cc(OC)c1OC` is reported as less than 0% (PPO3; enzyme activity, inhibitor; 25 µM, added: L-tyrosine).
`CSCC[C@H](NC(=O)[C@@H](NC(=O)[C@H](CCCNC(=N)N)NC(=O)[C@H](C)N)[C@@H](C)O)C(=O)N[C@H]1CCCCNC(=O)CC[C@@H](C(=O)N[C@H](C(=O)NCC(=O)N[C@@H](C)C(=O)N[C@@H](CCCCN)C(=O)N[C@@H](C)C(=O)N2CCC[C@H]2C(=O)N[C@@H](CCCNC(=N)N)C(=O)N[C@@H](CCCCN)C(=O)N[C@@H](CCC(N)=O)C(=O)N[C@@H](CC(C)C)C(=O)N[C@@H](C)C(=O)O)[C@@H](C)O)NC(=O)[C@H](CCCCN)NC(=O)[C@H](CCCNC(=N)N)NC(=O)[C@H](C)NC(=O)[C@H]([C@@H](C)O)NC1=O` has an inhibition of 9 ± 0.7% (KDM1A with CoREST; demethylase activity, fluorescence; 500 nM).
With `N#Cc1ccc(-c2ccc(F)c(C(=O)NCc3nnc4ccc(C(F)(F)F)cn34)c2)cc1` the inhibition was 24 ± 5% (IDO1; kynurenine production, inhibitor, refers to: L-kynurenine; A-375; 10 µM, 48 h, added: IFN-γ).
`glutathione` gave an inhibition of 43.3 ± 2.55% (GAPDH (Homo sapiens, UniProt P04406); protein aggregation, turbidity; 50 µM, 48 h, 37 °C).
`COc1ccc(/C=C2\OC(=S)N(c3ccccc3)C2=O)cc1` has an inhibition of less than 0% (PPO3; enzyme activity, inhibitor; 25 µM, added: L-tyrosine).
The inhibition of `Cc1nc2sccn2c(=O)c1CCN1CCC(=C(c2ccccc2)c2ccc(F)cc2)CC1` is reported as 99.5% (HTR7 (Homo sapiens, UniProt P34969); agonist response, antagonist; 10 µM, added: reference agonist at EC90).
The inhibition of `COc1cc(F)c(C(=O)NCc2nnc3ccc(C(F)(F)F)cn23)c(F)c1` is reported as 19 ± 3% (IDO1; kynurenine production, inhibitor, refers to: L-kynurenine; A-375; 10 µM, 48 h, added: IFN-γ).
For `Ic1ccccc1C(Nc1nccs1)(c1ccccc1)c1ccccc1`, the inhibition was less than 20% (Gap junction beta-1 protein (Gjb1, Rattus norvegicus, UniProt P08033); gap junction channel current, inhibitor, dual whole-cell voltage clamp; N2a; 10 µM).
For `COc1cc(C(=O)OCCCN2CCCN(CCCOC(=O)c3cc(OC)c(OC)c(OC)c3)CC2)cc(OC)c1OC.Cl.Cl`, the inhibition was 76.9% (SCN10A; sodium influx, inhibitor, FLIPR; HEK293; 10 µM, added: deltamethrin 10 µM).
`O=C(NCc1nnc2ccc3ccccc3n12)c1ccc(O)c(Br)c1` has an inhibition of greater than 50% (IDO1; kynurenine production, inhibitor, refers to: L-kynurenine; A-375; 10 µM, 48 h, added: IFN-γ).
With `O=C1C(=Cc2ccccc2Cl)CN(CC(=O)c2ccc(F)cc2)CC1=Cc1ccccc1Cl` the inhibition was less than 10% (Genome polyprotein NS2B-NS3 protease; protease activity; dengue virus 2; 50 µM).
For `O=C(N[C@@H](Cn1ccnc1)c1c(F)cc(-c2ccc(F)cc2)cc1F)c1ccc(-c2nnc(-c3ccccc3)o2)cc1`, inhibition read “inhibited” (Lanosterol 14-alpha-demethylase; enzyme activity, inhibitor; equimolar to enzyme, 1 h, Trypanosoma brucei CYP51, added: obtusifoliol 50 µM).
The inhibition of `C/C(=N/N=c1/scc(-c2ccc(Br)cc2)n1-c1c(C)cccc1C)c1ccc2c(c1)NC(=O)CO2` is reported as 22.7% (Aldo-keto reductase family 1 member B1; enzyme activity, inhibitor, absorbance; 1 mM).
`COc1ccc(CN2CCN(C(c3ccc(F)cc3)c3ccc(F)cc3)CC2)c(OC)c1OC.Cl.Cl` gave an inhibition of 91% (SCN10A; sodium influx, inhibitor, FLIPR; HEK293; 10 µM, added: deltamethrin 10 µM).
`Cc1ccccc1C=C1CN(CC(=O)c2ccc(F)cc2)CC(=Cc2ccccc2C)C1=O` gave an inhibition of less than 10% (Genome polyprotein NS2B-NS3 protease; protease activity; dengue virus 2; 50 µM).
With `O=C(O[C@@H]1Cc2c(O)cc(O)cc2O[C@@H]1c1ccc(O)c(O)c1)c1cc(O)c(O)c(O)c1` the inhibition was roughly 65% (Myocilin, OLF domain (Homo sapiens, UniProt Q99972); amyloid fibrillation, thioflavin T; 75 µM, pH 7.2, 37 °C, added: olfactomedin domain 15 µM).
`CCSc1ccc2c(c1)N(CCCN1CCN(C)CC1)c1ccccc1S2.O=C(O)CC(O)C(=O)O.O=C(O)CC(O)C(=O)O` gave an inhibition of 86.6% (SCN10A; sodium influx, inhibitor, FLIPR; HEK293; 10 µM, added: deltamethrin 10 µM).
For `CN(C1=CC(=O)C(=O)c2ccccc21)c1ccc(F)cc1`, the inhibition was 99% (CES1 (Homo sapiens, UniProt P23141); oseltamivir hydrolysis, inhibitor; U373 MG expressing CES1; 5 µM, 30 min, added: oseltamivir 20 µM).
The inhibition of `CSCC[C@H](NC(=O)[C@@H](NC(=O)[C@H](CCCNC(=N)N)NC(=O)[C@H](C)N)[C@@H](C)O)C(=O)N[C@H]1CCCCNC(=O)CC[C@@H](C(=O)N[C@H](C(=O)NCC(=O)NCC(=O)N[C@@H](CCCCN)C(=O)N[C@@H](C)C(=O)N2CCC[C@H]2C(=O)N[C@@H](CCCNC(=N)N)C(=O)N[C@@H](CCCCN)C(=O)N[C@@H](CCC(N)=O)C(=O)N[C@@H](CC(C)C)C(=O)N[C@@H](C)C(=O)O)[C@@H](C)O)NC(=O)[C@H](C)NC(=O)[C@H](CCCNC(=N)N)NC(=O)[C@H](C)NC(=O)[C@H]([C@@H](C)O)NC1=O` is reported as 0% (KDM1A with CoREST; demethylase activity, fluorescence; 500 nM).
For `COc1cc(C)c(C(=O)NCc2nnc3ccc4ccccc4n23)c(C)c1`, the inhibition was greater than 50% (IDO1; kynurenine production, inhibitor, refers to: L-kynurenine; A-375; 10 µM, 48 h, added: IFN-γ).
`Cc1ccc(CNC(=O)c2cnn(Cc3ccc(Cn4ccccc4=O)cc3)c2)cc1` gave an inhibition of greater than 30% (Plasma kallikrein (KLKB1, Homo sapiens, UniProt P03952); enzyme activity, inhibitor; 0.1 µM).
`Cc1ccccc1-c1ccc(F)c(C(=O)NCc2nnc3ccc(C(F)(F)F)cn23)c1` has an inhibition of 31 ± 29% (IDO1; kynurenine production, inhibitor, refers to: L-kynurenine; A-375; 10 µM, 48 h, added: IFN-γ).
For `COc1cccc(-n2c(-c3ccc(Br)cc3)cs/c2=N/N=C(/C)c2ccc3c(c2)NC(=O)CO3)c1`, the inhibition was 27.4% (Aldo-keto reductase family 1 member B1; enzyme activity, inhibitor, absorbance; 1 mM).
For `COc1ccc(-c2ccc(F)c(C(=O)NCc3nnc4ccc(C(F)(F)F)cn34)c2)cc1`, the inhibition was 49 ± 15% (IDO1; kynurenine production, inhibitor, refers to: L-kynurenine; A-375; 10 µM, 48 h, added: IFN-γ).
`O=C1/C(=C/c2ccc(O)c(O)c2)OC(=S)N1c1ccccc1` has an inhibition of 30.6% (PPO3; enzyme activity, inhibitor; 25 µM).

A few entries again:
The inhibition of `COc1cc(F)c(C(=O)NCc2nnc3ccc(C(F)(F)F)cn23)c(F)c1` is reported as 19 ± 3% (IDO1; kynurenine production, inhibitor, refers to: L-kynurenine; A-375; 10 µM, 48 h, added: IFN-γ).
`Cc1ccc(CNC(=O)c2cnn(Cc3ccc(Cn4ccccc4=O)cc3)c2)cc1` gave an inhibition of greater than 30% (Plasma kallikrein (KLKB1, Homo sapiens, UniProt P03952); enzyme activity, inhibitor; 0.1 µM).
`C/C(=N/N=c1/scc(-c2ccc([N+](=O)[O-])cc2)n1-c1ccccc1)c1ccc2c(c1)NC(=O)CO2` has an inhibition of 20.8% (Aldo-keto reductase family 1 member B1; enzyme activity, inhibitor, absorbance; 1 mM).
